Published values collected from several papers.
Lines come from different studies, so protocols differ. ± marks the error that the study gave.

| SMILES | test | test system | setting | how to read | quantity | result |
| --- | --- | --- | --- | --- | --- | --- |
| CS(C)(=O)=Nc1ccc(-c2ccc(-c3nc4cc(O[C@@H]5CO[C@H]6[C@@H]5OC[C@H]6O)[nH]c4cc3F)cc2)cc1 |  | ob/ob mouse, AMLN diet NASH model | oral, 5 mg/kg daily, 8 weeks | reference: vehicle | hepatic triglycerides | decreased |
| CC[C@H](C)[C@H](NC(=O)[C@@H](NC(=O)[C@H](CC(=O)O)NC(C)=O)[C@@H](C)O)C(=O)N[C@@H](CCCNC(=N)N)C(=O)N[C@@H](CC(C)C)C(=O)N[C@@H](CC(C)C)C(=O)N[C@@H](Cc1ccccc1)C(=O)N[C@@H](CCC(N)=O)C(=O)N[C@@H](CC(C)C)C(=O)N[C@@H](CCSC)C(=O)N[C@@H](CCCNC(=N)N)C(=O)N1CCC[C@H]1C(=O)N1CCC[C@H]1C(=O)N[C@@H](CC(N)=O)C(=O)N[C@@H](CCSC)C(=O)N[C@H](C(=O)N1CCC[C@H]1C(=O)N[C@@H](C)C(=O)N[C@H](C(=O)N[C@@H](CC(N)=O)C(=O)N[C@@H](C)C(N)=O)C(C)C)[C@@H](C)O | item: HA-19 tetramer | antigen-experienced tetramer+ CD4 T cells, healthy adults, HLA-DRB1*0101 | dose not given |  | α4β7+ CCR9+ cells | 4% |
| COc1cc(C(Oc2ccc(C[C@H](N)C(=O)N[C@H](C)C(=O)NCC(=O)N(C)[C@@H](Cc3ccccc3)C(=O)NCCO)cc2)C(=O)O)c([N+](=O)[O-])cc1OC (stereo partly drawn) | inhibitory synaptic transmission, whole-cell voltage clamp | mouse hippocampal slices CA1 | 1 µM, together with: 355 nm flash 5 ms 84 mW |  | IPSC suppression fraction | 0.61 ± 0.05 |
| Cc1ccc(/C=C/C(=O)O)cc1-c1cc2c(cc1C)C(C)(C)CCC2(C)C | RNA sequencing, item: Dlx2 mRNA | rat, brain | dose not given, 24 h, single dose | reference: vehicle | log2 fold change | 1.18 |
| Cc1cc(O)c(I)c(C)c1C[C@H](N)C(=O)N[C@H](C)C(=O)N[C@@H](Cc1ccccc1)C(=O)N[C@@H](Cc1ccccc1)C(N)=O | tail flick | C57BL/6 mice | intracerebroventricular |  | analgesic ED50 | 1.15 µg |
| CC[C@H](C)[C@H](NC(=O)[C@H](Cc1c[nH]c2ccccc12)NC(=O)[C@H](CCCNC(=N)N)NC(=O)[C@H](CCCCN)NC(=O)[C@H](CC(C)C)NC(=O)[C@H](CC(=O)O)NC(=O)[C@H](Cc1ccccc1)NC(=O)[C@H](C)NC(=O)[C@H](Cc1ccc(O)cc1)NC(=O)[C@H](CC(N)=O)NC(=O)[C@H](Cc1ccc(O)cc1)NC(=O)[C@H](CCCNC(=N)N)NC(=O)[C@H](Cc1ccc(O)cc1)NC(=O)[C@H](Cc1ccc(O)cc1)NC(=O)[C@@H](NC(=O)[C@H](CC(C)C)NC(=O)[C@H](C)NC(=O)[C@H](CC(N)=O)NC(=O)[C@H](Cc1ccc(O)cc1)NC(C)=O)[C@@H](C)CC)C(=O)N[C@@H](Cc1ccc(O)cc1)C(=O)N[C@@H](CC(C)C)C(N)=O | item: HA-02 tetramer | antigen-experienced tetramer+ CD4 T cells, healthy adults, HLA-DRB1*0101 | dose not given |  | α4β7− CCR9− cells | 27.3% |
| COC[C@@H](NC(C)=O)C(=O)NCc1ccc(OCc2ccc(Cl)cc2)cc1 | formalin test, phase I | mouse | ip, 7.0 mg/kg | reference: vehicle | licking time | 85% |
| CC[C@H](C)[C@H](NC(=O)[C@H](C)NC(=O)CNC(=O)[C@@H](N)CCSC)C(=O)N[C@@H](C)C(=O)N[C@@H](CCCCN)C(=O)N[C@@H](CC(C)C)C(=O)N[C@@H](CCCNC(=N)N)C(=O)N[C@@H](C)C(=O)N[C@@H](CCCCN)C(=O)N[C@@H](Cc1ccccc1)C(=O)NCC(=O)N[C@@H](Cc1c[nH]c2ccccc12)C(=O)N1CCC[C@H]1C(=O)N[C@@H](Cc1ccccc1)C(=O)N[C@H](C(=O)N[C@@H](CCCCN)C(=O)N[C@@H](CCCCN)C(=O)N[C@@H](Cc1ccccc1)C(=O)N[C@@H](Cc1ccc(O)cc1)C(=O)N[C@@H](CCCCN)C(=O)N[C@@H](CCC(N)=O)C(=O)N[C@H](C(=O)N[C@@H](CCSC)C(=O)N[C@@H](CCC(N)=O)C(=O)N[C@@H](Cc1ccccc1)C(=O)N[C@H](C(=O)NCC(=O)N[C@@H](CCC(N)=O)C(=O)NCC(=O)N[C@@H](Cc1c[nH]c2ccccc12)C(=O)N[C@H](C(=O)N[C@H](C(=O)N[C@@H](CC(=O)O)C(=O)N[C@@H](CCC(N)=O)C(=O)N[C@H](C(=O)N[C@@H](CCC(=O)O)C(=O)N[C@@H](CCCCN)C(=O)N[C@@H](Cc1c[nH]c2ccccc12)C(=O)N[C@@H](CC(C)C)C(=O)N[C@@H](CCCCN)C(=O)N[C@@H](CCCNC(=N)N)C(=O)N[C@@H](Cc1c[nH]cn1)C(=O)O)[C@@H](C)CC)[C@@H](C)CC)[C@@H](C)O)[C@@H](C)CC)[C@@H](C)CC)[C@@H](C)CC |  | PG/PE 1:1 liposomes | MIC | reference: Triton X-100 | calcein release | 30.1 ± 1.1% |
| Cc1cc(O)cc(C)c1CC(N)C(=O)NC1CCNc2c1cc(Cc1ccccc1)cc2C(F)(F)F (stereo not drawn) | warm water tail withdrawal | male C57BL/6 mouse | ip, 1, 3.2, 10 mg/kg cumulative |  | antinociception | inactive |
| CC(C)C[C@@H]1NC(=O)[C@H](C(C)C)NC(=O)[C@H](CO)NC(=O)CNC(=O)CNC(=O)[C@H](CCCNC(=N)N)NC(=O)[C@@H]2CCCN2C(=O)[C@@H](NC(=O)CC[C@H](NC(=O)c2ccc(N(C)Cc3cnc4nc(N)nc(N)c4n3)cc2)C(=O)O)C(C)(C)SSC[C@@H](C(=O)O)NC(=O)CNC(=O)[C@H]([C@@H](C)O)NC(=O)[C@H](C(C)C)NC1=O |  | rat adjuvant arthritis | intravenous, 5 mg/kg once daily, day 14 | reference: arthritis vehicle | spleen weight increase suppression | 78% |
| CC(C)C[C@H](NC(=O)[C@H](CCCCN)NC(=O)[C@H](CCCNC(=N)N)NC(=O)[C@@H](CC(C)C)NC(=O)[C@H](Cc1c[nH]c2ccccc12)NC(=O)[C@H](CC(=O)O)NC(=O)[C@H](CCCCN)NC(=O)[C@@H](CC(C)C)NC(=O)[C@H](CCCNC(=N)N)NC(=O)[C@H](CCC(N)=O)NC(=O)[C@@H](NC(=O)[C@@H](CC(C)C)NC(=O)[C@H](CCCNC(=N)N)NC(=O)[C@H](CCCCN)NC(=O)[C@H](Cc1ccc(C(C)(C)C)cc1)NC(=O)CN)C(C)C)C(=O)N[C@H](C(N)=O)C(C)C | ELISA | C57BL/6 mouse, catheter infection, peri-catheter tissue | dose not given, 3 d | reference: untreated infected | IL-10 level | increased |
| C[C@]12CC[C@H](O)CC1CCC1C2[C@H](O)C(=O)[C@]2(C)[C@@H](c3ccc(=O)oc3)CC[C@]12O (stereo partly drawn) | sulfation, substrate | rat liver cytosol |  |  | Vmax | 0.032 ± 0.002 nmol/min/mg |
| CC1(O)CC23CC(O)C4(O)C(C5OC5C4(C)C)C(C)(O)C2CCC1C3O (stereo not drawn) | formalin phase I | mouse formalin test | oral, 0.10 mg/kg, 0.25 h | reference: saline | licking time | active |
| CC(C)C[C@H](NC(=O)[C@H](C)NC(=O)CNC(=O)[C@H](CO)NC(=O)CNC(=O)[C@H](CCCNC(=N)N)NC(=O)[C@H](CCCNC(=N)N)NC(=O)[C@H](CCCNC(=N)N)NC(=O)[C@H](CCC(N)=O)NC(=O)[C@H](CCCNC(=N)N)NC(=O)[C@H](CCCNC(=N)N)NC(=O)[C@H](CCCCN)NC(=O)[C@H](CCCCN)NC(=O)[C@H](CCCNC(=N)N)NC(=O)CNC(=O)[C@@H](N)Cc1ccc(O)cc1)C(=O)N[C@@H](CO)C(=O)N[C@H](C(=O)N[C@@H](CCC(=O)O)C(=O)N[C@@H](CCCNC(=N)N)C(=O)O)[C@@H](C)O | inhibitor | isolated rat heart | concentration not given, ischemia/reperfusion |  | STAT phosphorylation | no inhibition |
| CCN(Cc1ccccc1)C(=O)CCc1nc(CN2CCN(C(=O)Cc3ccc(OC)c(OC)c3)CC2)no1 | current clamp | L4-L6 DRG neurons, rat CCI model | 3 µM |  | resting membrane potential | -67.5 ± 2.69 mV |

A few entries again:
| SMILES | test | test system | setting | how to read | quantity | result |
| --- | --- | --- | --- | --- | --- | --- |
| CS(C)(=O)=Nc1ccc(-c2ccc(-c3nc4cc(O[C@@H]5CO[C@H]6[C@@H]5OC[C@H]6O)[nH]c4cc3F)cc2)cc1 |  | ob/ob mouse, AMLN diet NASH model | oral, 5 mg/kg daily, 8 weeks | reference: vehicle | hepatic triglycerides | decreased |
| CC[C@H](C)[C@H](NC(=O)[C@@H](NC(=O)[C@H](CC(=O)O)NC(C)=O)[C@@H](C)O)C(=O)N[C@@H](CCCNC(=N)N)C(=O)N[C@@H](CC(C)C)C(=O)N[C@@H](CC(C)C)C(=O)N[C@@H](Cc1ccccc1)C(=O)N[C@@H](CCC(N)=O)C(=O)N[C@@H](CC(C)C)C(=O)N[C@@H](CCSC)C(=O)N[C@@H](CCCNC(=N)N)C(=O)N1CCC[C@H]1C(=O)N1CCC[C@H]1C(=O)N[C@@H](CC(N)=O)C(=O)N[C@@H](CCSC)C(=O)N[C@H](C(=O)N1CCC[C@H]1C(=O)N[C@@H](C)C(=O)N[C@H](C(=O)N[C@@H](CC(N)=O)C(=O)N[C@@H](C)C(N)=O)C(C)C)[C@@H](C)O | item: HA-19 tetramer | antigen-experienced tetramer+ CD4 T cells, healthy adults, HLA-DRB1*0101 | dose not given |  | α4β7+ CCR9+ cells | 4% |
